Measured values of several laboratories.
Parts stem from different laboratories: compare values within a part only. Changes are numbered by the printed parent chain.

Block 1
Target: Histone acetyltransferase KAT6A, both winged helices, GST fusion (KAT6A, Homo sapiens, UniProt Q92794, residues 1-181)
Method: protein binding microarray
Form: double-stranded DNA, one strand shown
Matrix: in vitro
Concentration: not given
Setting: 8-mer, flanks averaged, mean of 2 arrays, mostly near background
Relative to: not given
Direction: higher = stronger binding
Endpoint: E-score
Residues (chain): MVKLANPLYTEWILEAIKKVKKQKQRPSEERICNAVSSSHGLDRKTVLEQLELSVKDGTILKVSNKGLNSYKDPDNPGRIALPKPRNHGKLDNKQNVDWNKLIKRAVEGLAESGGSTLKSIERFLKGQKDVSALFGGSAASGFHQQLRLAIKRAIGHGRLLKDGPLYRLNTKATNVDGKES
AATTTAGT: -0.112
CCTACACG: -0.0727
GCCAGGGC: -0.0306
CGTAGATA: 0.0227
CTTTAGCC: 0.0128
GATTTGGC: -0.142
GCACTTCA: 0.0541
AAGGTTGC: 0.0109
CGTTTCGA: 0.043
GAACCATC: 0.0619
ACCTACCC: -0.114
CATAAGAG: -0.186

Block 2
Target: RNA binding protein fox-1 homolog 2, RRM domain, GST-SBP tag (RBFOX2, Homo sapiens, UniProt O43251-10, residues 100-194)
Method: RNA Bind-n-Seq
Form: RNA
Matrix: in vitro
Concentration: 365 nM
Setting: natural RNA segment, single round, ends assumed
Relative to: no-protein control
Direction: higher = stronger binding
Endpoint: RBNS enrichment (R)
Constant ends, left off below: GGGAGUUCUACAGUCCGACGAUC … UGGAAUUCUCGGGUGCCAA
Construct (chain): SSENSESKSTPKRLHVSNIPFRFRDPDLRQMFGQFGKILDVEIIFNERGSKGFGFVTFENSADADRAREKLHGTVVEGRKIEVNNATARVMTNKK
UAAGUUUAUUUUGUCAAAAAUGACAAGGAAAAAGCCAGCUGUUUUCAUAGACCUUUUCAUUAUGAUACUGUAUCUUGCAUAGUUGAAUCUUCUCAUUUAUACAGUGCCUU: 0.485
UGCCUGCACAUUUAGUUAAACUGGGCUCAGCAUGCUUGUCCUCAAAAUGUCCAUCCUGGUCACAGCACACAAGAUGGCUAUUGGUCUGCUUUUACCCUACCCUGUACUAU: 4.44
UUAUUUUUAGCCAUGCACUGUUGUGAGGAAAAAUUACCUGUCUUGACUGCCAUGUGUUCAUCAUCUUAAGUAUUGUAAGCUGCUAUGUAUGGAUUUAAACCGUAAUCAUA: 0.633
UUUAGCAGAGCCUUUAGUGUUAACACCAGUGGCGAGGAGCAUUGCAUAUUCUCUGUCAGCAGCAGCACUCCCACACCAGGUGGUUCUGGGCUCUCUGUAGGCUGGUCCUA: 0.332
CACUGUGCGUGCAGACACACUGACACACUCCGCCACGAGUGCUCCAGAGCCCACGAGGCUUGCAGAUCGGGGGCAUAGGAAUUUGGAAUCCAAGAGCUAUAAUUUUUAAA: 1.46
UGAGUAAUGCAUUUGAGCUGUCCCAGGCUCUGUCUCCUCAGCUCAUUUCCUACUCUUUUUCUCUAUAUAACUCAUUCUAUUAAAUACAUUGCACCAAAGAGAUAUGGAGA: 0.473
AGUCUGGCUGAACCCAUUUCCACCUGCAAAGUCUUGUGUUGUGUCUGCAGGCCACACCAGUGGCCACAGGGGCCAUUUUGUCUUGUUGAUGCUGAAACCAUGCUGGACUG: 0.556
AAAGAUUCUUAAUCAAGAGUUUCAGAGUUUAGAAACUCGGAUGUUGGGCAAGUUAGGAAAUAUUCCACCAGCAAAAUUAACAUUACCAGCCAUCUCUGCAAAUGCUCCUG: 0.468

Block 3
Target: CCNE2, cyclin fold, Cln2 fusion (human)
Method: yeast growth competition, sequencing
Matrix: yeast
Setting: weak parent motif
Relative to: not given
Direction: higher = stronger binding
Endpoint: normalised enrichment score
Parent: SLBP docking peptide (human); ARYKRKLLINDFG; partner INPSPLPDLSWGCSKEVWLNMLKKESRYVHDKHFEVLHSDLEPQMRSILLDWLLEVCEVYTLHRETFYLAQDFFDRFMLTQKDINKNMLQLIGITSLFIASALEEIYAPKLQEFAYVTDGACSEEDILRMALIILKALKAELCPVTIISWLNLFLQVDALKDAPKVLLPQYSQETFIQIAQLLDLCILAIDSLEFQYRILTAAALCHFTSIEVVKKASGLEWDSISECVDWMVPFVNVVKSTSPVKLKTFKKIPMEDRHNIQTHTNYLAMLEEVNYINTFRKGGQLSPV
ARYKRKLLQNDFG [I9Q]: -0.183
ARYKRKLLIQDFG [N10Q]: 0.832
ARYKRKLIINDFG [L8I]: 0.908
ARFKRKLLINDFG [Y3F]: 0.312
ARYKRKLLVNDFG [I9V]: 0.83
AMYKRKLLINDFG [R2M]: 1.15
LRYKRKLLINDFG [A1L]: 0.26
AREKRKLLINDFG [Y3E]: 0.594
ARYSRKLLINDFG [K4S]: 0.502

Further values, each from its own experiment
PhoQ, residues 284 288 289 292 302 303 SNGLAW — fold induction (PhoP, residues 12 14 15 18 19 NMSFL (Escherichia coli, UniProt P23836); Sort-seq, item: YFP reporter; E. coli; PhoQ-PhoP variant library, together with: 10 µM Mg2+; relative to: high Mg2+ state, higher = stronger signaling): 9.75

Some of these lines once more (block 3):
AMYKRKLLINDFG [R2M]: 1.15
LRYKRKLLINDFG [A1L]: 0.26
AREKRKLLINDFG [Y3E]: 0.594
ARYSRKLLINDFG [K4S]: 0.502
